Measured values from different studies.
Protocols differ between the studies behind these lines. ± gives the spread as reported.

| Compound | test | system | conditions | Tmax |
| --- | --- | --- | --- | --- |
| COc1cc(OC)c(/C=C/S(=O)(=O)Cc2ccc(OC)c(NCC(=O)O)c2)c(OC)c1 | – | cancer patients, phase I, plasma | oral, 560 mg twice daily, day 21 cycle 1 | 1.08 ± 0.41 h |
| CC(=O)Nc1ccc(O)cc1 | – | healthy volunteers, both sexes, plasma | oral, 650 mg, day 6, together with: favipiravir, extended | 0.74 h |
| CON(C)C(=O)N1N=C(c2cc(F)ccc2F)S[C@@]1(CCCN)c1ccccc1 | – | patients, plasma | intravenous, cycle 1 day 3, median | 1 h |
| NC(=O)c1cnc2[nH]ccc2c1N[C@@H]1[C@@H]2CC3C[C@H]1C[C@@](O)(C3)C2 | – | Japanese, mild hepatic impairment, plasma | oral, 150 mg single dose, median | 1.47 h |
| Cc1ccc(Sc2ccccc2N2CCNCC2)c(C)c1 | – | healthy men, plasma | oral, 10 mg once daily, fed, day 12 | 8.3 h |
| CN1C(=O)[C@@H](NC(=O)c2nnc(Cc3ccccc3)[nH]2)COc2ccccc21 | – | healthy men, plasma | oral, 60 mg once daily, day 14, median | 2 h |
| CC(=O)Nc1ccc(O[C@@H]2O[C@H](C(=O)O)[C@@H](O)[C@H](O)[C@H]2O)cc1 | – | healthy volunteers, both sexes, plasma | oral, 650 mg acetaminophen, day 6, together with: favipiravir, extended | 2.1 h |
| COc1ccc2c3c1O[C@H]1C[C@@H](OC(=O)c4ccccc4)C=C[C@@]31CCN(C)C2 | – | healthy young men, plasma | intranasal, 5.5 mg, single dose | 0.29 h |
| CCOc1cc([C@@H](CS(C)(=O)=O)N2C(=O)c3cccc(NC(C)=O)c3C2=O)ccc1O[C@@H]1O[C@H](C(=O)O)[C@@H](O)[C@H](O)[C@H]1O | – | severe renal impairment patients, plasma | oral, 30 mg of apremilast | 12 h |
| CN1CC[C@@H](NC(=O)Nc2ccc(C#N)cc2)C[C@@H]1c1nc2ccccc2[nH]1 | – | Japanese patients | oral, 100 mg once daily, cycle 1 day 21, median | 2 h |
| CN[C@H]1C(=O)N[C@@H]2Cc3ccc(cc3)Oc3cc4cc(c3O[C@@H]3O[C@H](C(=O)O)[C@@H](O)[C@H](O)[C@H]3NC(=O)CCCCCCCCC(C)C)Oc3ccc(cc3Cl)[C@@H](O)[C@@H]3NC(=O)[C@H](NC(=O)[C@@H]4NC(=O)[C@@H](NC2=O)c2cc(cc(O)c2Cl)Oc2cc1ccc2O)c1ccc(O)c(c1)-c1c(O[C@H]2O[C@H](CO)[C@@H](O)[C@H](O)[C@@H]2O)cc(O)cc1[C@@H](C(=O)NCCCN(C)C)NC3=O | – | healthy Japanese subjects, plasma | intravenous infusion, 1000 mg, 30 min infusion, single dose, median | 1 h |
| CO[C@H]1C[C@@H]2CC[C@@H](C)[C@@](O)(O2)C(=O)C(=O)N2CCCC[C@H]2C(=O)O[C@H]([C@H](C)C[C@@H]2CC[C@@H](OP(C)(C)=O)[C@H](OC)C2)CC(=O)[C@H](C)/C=C(\C)[C@@H](O)[C@@H](OC)C(=O)[C@H](C)C[C@H](C)/C=C/C=C/C=C/1C | HPLC-MS/MS | Japanese patients, whole blood | oral, 20 mg, day 1, cycle 1, median | 7.93 h |
| CCOc1ccc(Cc2cc([C@@H]3S[C@H](CO)[C@@H](O)[C@H](O)[C@H]3O)c(OC)cc2C)cc1 | – | Japanese type 2 diabetes patients, plasma | oral, 5 mg single dose, eGFR 30-44 mL/min/1.73 m^2, median | 0.5 h |
| C[C@@H](Oc1ccc(S(C)(=O)=O)cc1C(=O)N1C[C@@H]2C[C@]2(c2cc(C(F)(F)F)on2)C1)C(F)(F)F | – | healthy male volunteers, plasma | oral, 25 mg, median, together with: itraconazole | 2.5 h |
| NS(=O)(=O)c1cc(Cl)c(Cl)c(S(N)(=O)=O)c1 | – | healthy volunteers, plasma | oral, 100 mg, single dose, median | 2 h |
| CC#CC(=O)N1CCC[C@H]1c1nc(-c2ccc(C(=O)Nc3ccccn3)cc2)c2c(N)nccn12 | – | Japanese patients, plasma | oral, 100 mg twice daily, day 8, fasting, multiple dose, median | 0.615 h |
| CCCOc1ccc([C@H]2CNC(=O)N2c2ccc3[nH]cnc3c2)cc1 | – | non-elderly adults, fasted, plasma | oral, 20 mg twice daily, day 11, oral solution, median | 0.5 h |
| CNCc1ccc(-c2[nH]c3cc(F)cc4c3c2CCNC4=O)cc1 | noncompartmental analysis | patients, plasma | oral, 600 mg, day 21, together with: bevacizumab | 5 ± 1.4 h |

| Compound | test | system | conditions | Tmax |
| --- | --- | --- | --- | --- |
| Cc1ccc(NC(=O)c2ccc(CN3CCN(C)CC3)cc2)cc1Nc1nccc(-c2cncc(-c3oncc3C)c2)n1 | – | Parkinson's disease patients, plasma | oral, 50.0 mg once daily, day 7, 7-day dosing, mean | 3.63 h |
| COc1cc2c(cc1OC)CN(CCc1ccc(NC(=O)c3cc(OC)c(OC)cc3NC(=O)c3cnc4ccccc4c3)cc1)CC2 | – | human, plasma | intravenous infusion, 8 mg/kg | 2.82 h |
| CS(=O)(=O)n1cc2c(n1)CN([C@H]1CO[C@H](c3cc(F)ccc3F)[C@@H](N)C1)C2 | – | healthy Japanese men, plasma | oral, 1 mg once weekly, day 15 | 2 h |
| O=C1CCc2ccc(OCCCCN3CCN(c4cccc(Cl)c4Cl)CC3)cc2N1 | – | healthy Japanese men, CYP2D6 IM, plasma | oral, 3 mg aripiprazole single, together with: fluvoxamine 100 mg/day | 3 ± 1.8 h |
| Cc1nc(-c2ccc(OCC(C)C)c(C#N)c2)sc1C(=O)O | – | healthy men, plasma | oral, 80 mg once daily, day 14, median, together with: verinurad 2.5 mg | 1.5 h |
| CN[C@H](CC(C)C)C(=O)N[C@H]1C(=O)N[C@@H](CC(N)=O)C(=O)N[C@H]2C(=O)N[C@H]3C(=O)N[C@H](C(=O)N[C@H](C(=O)O)c4cc(O)cc(O)c4-c4cc3ccc4O)[C@H](O)c3ccc(c(Cl)c3)Oc3cc2cc(c3O[C@@H]2O[C@H](CO)[C@@H](O)[C@H](O)[C@H]2O[C@H]2C[C@](C)(N)[C@H](O)[C@H](C)O2)Oc2ccc(cc2Cl)[C@H]1O | microdialysis | pig (Danish Landrace), subcutaneous adipose tissue | iv infusion, 1000 mg over 100 min, together with: meropenem co-administered | 2.88 h |
| CC1=C2C[C@H]3[C@@H](CC[C@@H]4C[C@H](NS(C)(=O)=O)CC[C@@]43C)[C@@H]2CC[C@@]2(C1)O[C@@H]1C[C@H](C)CN[C@H]1[C@H]2C | – | patients, plasma | oral, 90 mg single, day -7, cycle 1 | 4 h |
| Cc1cn([C@H]2C[C@H](N=[N+]=[N-])[C@@H](CO)O2)c(=O)[nH]c1=O | – | healthy men, PBMCs | oral, 600 mg | ≤ 1.08 h |
| CCc1cc2c(cc1N1CCC(N3CCOCC3)CC1)C(C)(C)c1[nH]c3cc(C#N)ccc3c1C2=O | – | severe hepatic impairment patients, plasma, total | oral, 300 mg single dose, fed, median | 7 h |
| CC(C)=CCC[C@](C)(O[C@@H]1O[C@H](CO)[C@@H](O)[C@H](O)[C@H]1O)[C@H]1CC[C@]2(C)[C@@H]1[C@H](O)C[C@@H]1[C@@]3(C)CC[C@H](O[C@@H]4O[C@H](CO)[C@@H](O)[C@H](O)[C@H]4O)C(C)(C)[C@@H]3CC[C@]12C | LC-MS/MS | healthy female volunteers, serum | oral, 3 g fermented red ginseng | 10.8 ± 2.68 h |
| NC(=O)c1cnc2[nH]ccc2c1N[C@@H]1[C@@H]2CC3C[C@H]1C[C@@](O)(C3)C2 | – | healthy Japanese men, plasma | oral, 60 mg, single dose fasted median | 1.3 h |
| CO/N=C1\C[C@]2(C[C@@H]3C[C@@H](C/C=C(\C)C[C@@H](C)/C=C/C=C4\CO[C@@H]5[C@H](O)C(C)=C[C@@H](C(=O)O3)[C@]45O)O2)O[C@H](/C(C)=C/C(C)C)[C@H]1C | HPLC, non-compartmental | Corriedale lambs, parasitized, plasma | subcutaneous, 0.2 mg/kg, together with: closantel 5 mg/kg subcutaneous | 12 ± 4.56 h |
| CC(C)(Sc1ccncc1-c1ccc(C#N)c2ccccc12)C(=O)O | – | male, plasma | oral, 15 mg, severe renal impairment, fasted | 2 h |
| C[C@]12C=CC(=O)C=C1CC[C@@H]1[C@@H]2[C@@H](O)C[C@@]2(C)[C@H]1C[C@H]1O[C@@H](C3CCCCC3)O[C@]12C(=O)CO | – | children with asthma, serum | inhaled, 160 µg ciclesonide, day 7, HFA-MDI with spacer | 0.69 ± 0.044 h |
| N[C@]1(C(=O)O)[C@H]2[C@@H](C[C@@H]1F)[C@@H]2C(=O)O | – | healthy subjects, both sexes, plasma | oral, 10 mg TS-134 single dose, fed, median | 4 h |
| C[C@@H](O)[C@H]1C(=O)N2C(C(=O)O)=C(S[C@@H]3CN[C@H](C(=O)N(C)C)C3)[C@H](C)[C@H]12 | microdialysis | pig (Danish Landrace), cancellous bone | iv infusion, 1000 mg over 10 min, together with: vancomycin co-administered | 0.683 h |
| CC(C)=CCC[C@](C)(O[C@@H]1O[C@H](CO)[C@@H](O)[C@H](O)[C@H]1O)[C@H]1CC[C@]2(C)[C@@H]1[C@H](O)C[C@@H]1[C@@]3(C)CC[C@H](O[C@@H]4O[C@H](CO)[C@@H](O)[C@H](O)[C@H]4O[C@@H]4O[C@H](CO)[C@@H](O)[C@H](O)[C@H]4O)C(C)(C)[C@@H]3CC[C@]12C | LC-MS/MS | healthy male volunteers, serum | oral, 3 g fermented red ginseng | 9.92 ± 3.33 h |
